# Measurements of several laboratories.
# A part holds a random share of what one study measured.
# Sequence of UniProt Q6XUX3 (whole entry, looked up): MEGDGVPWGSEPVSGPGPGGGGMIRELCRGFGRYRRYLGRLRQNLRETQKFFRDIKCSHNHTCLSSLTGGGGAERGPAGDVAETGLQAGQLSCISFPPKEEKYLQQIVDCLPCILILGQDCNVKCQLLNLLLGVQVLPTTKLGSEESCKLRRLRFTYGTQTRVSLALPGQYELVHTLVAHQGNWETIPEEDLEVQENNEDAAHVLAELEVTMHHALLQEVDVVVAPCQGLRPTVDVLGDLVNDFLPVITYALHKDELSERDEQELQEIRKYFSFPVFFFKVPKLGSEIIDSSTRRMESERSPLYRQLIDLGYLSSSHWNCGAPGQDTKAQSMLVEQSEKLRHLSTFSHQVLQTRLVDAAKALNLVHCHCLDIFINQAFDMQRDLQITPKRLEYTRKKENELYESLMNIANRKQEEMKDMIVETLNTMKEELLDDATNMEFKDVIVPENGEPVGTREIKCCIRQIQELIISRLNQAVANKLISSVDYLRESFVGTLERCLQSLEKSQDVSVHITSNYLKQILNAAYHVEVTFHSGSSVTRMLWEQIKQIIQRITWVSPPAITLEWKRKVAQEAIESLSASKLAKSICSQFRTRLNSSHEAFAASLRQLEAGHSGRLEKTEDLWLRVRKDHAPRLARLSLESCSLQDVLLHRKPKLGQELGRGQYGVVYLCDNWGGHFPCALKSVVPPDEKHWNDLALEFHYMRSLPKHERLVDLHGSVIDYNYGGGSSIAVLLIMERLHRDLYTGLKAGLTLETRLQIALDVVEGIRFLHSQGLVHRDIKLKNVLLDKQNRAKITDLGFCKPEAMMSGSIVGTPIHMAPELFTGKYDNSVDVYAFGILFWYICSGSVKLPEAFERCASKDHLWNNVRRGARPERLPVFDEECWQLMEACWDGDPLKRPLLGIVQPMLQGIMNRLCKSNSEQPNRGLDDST
# Sequence of UniProt Q9HCP0 (whole entry, looked up): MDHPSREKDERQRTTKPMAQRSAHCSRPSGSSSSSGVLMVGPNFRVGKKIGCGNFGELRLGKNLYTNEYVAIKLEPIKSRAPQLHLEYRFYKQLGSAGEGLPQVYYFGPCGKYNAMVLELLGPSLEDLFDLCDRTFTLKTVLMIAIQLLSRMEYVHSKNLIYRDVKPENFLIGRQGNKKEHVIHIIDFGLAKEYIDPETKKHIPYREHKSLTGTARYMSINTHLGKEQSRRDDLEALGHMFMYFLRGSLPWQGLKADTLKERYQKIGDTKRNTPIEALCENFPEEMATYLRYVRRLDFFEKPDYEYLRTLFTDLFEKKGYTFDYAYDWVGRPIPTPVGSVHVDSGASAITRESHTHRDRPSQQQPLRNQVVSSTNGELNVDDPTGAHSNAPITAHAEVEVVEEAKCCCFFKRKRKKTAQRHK
# Sequence of UniProt Q8TDR2 (whole entry, looked up): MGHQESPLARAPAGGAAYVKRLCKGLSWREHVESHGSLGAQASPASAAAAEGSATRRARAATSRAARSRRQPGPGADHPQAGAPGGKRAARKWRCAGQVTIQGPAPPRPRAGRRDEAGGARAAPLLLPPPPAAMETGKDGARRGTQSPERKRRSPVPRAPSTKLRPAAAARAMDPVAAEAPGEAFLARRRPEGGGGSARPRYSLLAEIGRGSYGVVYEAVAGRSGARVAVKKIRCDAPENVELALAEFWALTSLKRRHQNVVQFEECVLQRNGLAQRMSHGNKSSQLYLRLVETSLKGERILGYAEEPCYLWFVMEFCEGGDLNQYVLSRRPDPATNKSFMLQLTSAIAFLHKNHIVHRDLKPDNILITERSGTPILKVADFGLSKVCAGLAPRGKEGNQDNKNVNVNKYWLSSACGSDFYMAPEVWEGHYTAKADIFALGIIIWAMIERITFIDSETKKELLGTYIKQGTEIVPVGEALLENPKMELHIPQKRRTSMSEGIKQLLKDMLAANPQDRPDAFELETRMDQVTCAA

# Sample 1 — host: mouse; medium: microsomes or S9; concentration: 2 µM; time: 0.5 h
SMILES,remaining compound [%]
O=C(O)C1CC[C@@H](c2ccccc2)N1C(=O)C1CCCS1(=O)=O (some centres unmarked),> 100
Cc1ccc2nc(Nc3nc(C)cc(C(F)(F)F)n3)nc(C)c2c1,2.29
CC(C)CC(=O)Nc1ccc(-n2cnc(C(=O)NCc3ccccc3Cl)c2)nc1,95.7
O=C(NC1Cc2ccccc2C1)NC1CCCn2ncnc21 (centres unmarked),84.5
CC1(C)CC(NC(=O)c2cccc(Br)c2)CC(C)(C)N1,0.12
CCc1nc2n(n1)C1(CCCCC1)[C@@H]1CCCC[C@@H]1N2C(=O)CC(C)C,0.154
c1ccc(C(CCNc2ncnc3[nH]cnc23)c2ccccc2)cc1,17.2
CCCc1cc(N2CCN(C(=O)c3ccc(C#N)cc3F)CC2)nc2nnc(CC)n12,82.3
CCOC(=O)Cc1c(C)[nH]c2c(-c3ccccc3)cnn2c1=O,78.1
COc1ccc2c(c1OC)C(=O)OC2c1c(O)cc(C)n(Cc2ccccn2)c1=O (centres unmarked),> 100
Cc1ccc(C(=O)C2=CN(c3ccc(N(C)C)cc3)c3ccccc3S2(=O)=O)c(C)c1,2.73
CCC(=O)N1CCN(c2cc(-n3cnc(C)c3C)nc(C)n2)CC1,88.9

# Sample 2 — effect on: enzyme activity; mode: inhibitor; concentration: 0.5 µM; reference: control
# Target: Serine/threonine-protein kinase Nek11 (NEK11, Homo sapiens, UniProt Q8NG66)
# Sequence of UniProt Q8NG66 (whole entry, looked up): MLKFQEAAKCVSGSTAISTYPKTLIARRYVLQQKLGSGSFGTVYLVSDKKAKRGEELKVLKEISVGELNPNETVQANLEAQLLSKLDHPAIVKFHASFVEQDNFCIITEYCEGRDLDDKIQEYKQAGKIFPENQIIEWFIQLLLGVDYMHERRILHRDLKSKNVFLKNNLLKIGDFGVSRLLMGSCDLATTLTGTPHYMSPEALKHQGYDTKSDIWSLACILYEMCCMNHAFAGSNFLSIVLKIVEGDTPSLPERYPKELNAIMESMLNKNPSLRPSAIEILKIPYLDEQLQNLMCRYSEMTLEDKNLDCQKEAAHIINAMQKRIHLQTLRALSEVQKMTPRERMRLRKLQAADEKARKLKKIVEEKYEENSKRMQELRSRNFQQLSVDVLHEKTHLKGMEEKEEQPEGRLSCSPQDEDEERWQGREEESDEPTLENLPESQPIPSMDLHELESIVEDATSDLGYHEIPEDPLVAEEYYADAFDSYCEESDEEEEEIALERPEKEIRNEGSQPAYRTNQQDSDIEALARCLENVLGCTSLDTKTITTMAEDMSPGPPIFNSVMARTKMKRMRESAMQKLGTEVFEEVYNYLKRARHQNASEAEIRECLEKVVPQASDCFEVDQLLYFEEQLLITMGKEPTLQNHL
SMILES,remaining activity
NC(=O)c1ccc(-c2nc(-c3ccc4c(c3)OCCO4)c(-c3ccccn3)[nH]2)cc1,108%
Nc1nc(Nc2ccc(S(N)(=O)=O)cc2)nn1C(=S)Nc1c(F)cccc1F,101%
CNc1cc2c(Nc3cccc(Br)c3)ncnc2cn1,106%
O=Nc1c(-c2c(O)[nH]c3ccccc23)[nH]c2ccccc12,98.2%
c1cc(-c2cnn3cc(-c4ccc(OCCN5CCCCC5)cc4)cnc23)ccn1,96.7%
CC(C)n1cnc2c(Nc3cccc(Cl)c3)nc(NCCO)nc21,109%
O=C1NC(=O)/C(=C/c2ccc3c(c2)OC(F)(F)O3)S1,111%
O=c1c(-c2ccc(F)cc2)c(-c2ccncc2)[nH]n1-c1ccc(Cl)cc1,104%
O=C(c1ccccc1)c1ccc(N2CCOCC2)cc1O,97.7%
O=C1c2ccccc2-c2nc3nnnn3nc21,88%
CCN(CC)CCCCN1c2ccccc2Oc2ccc(Cl)cc21,92%
COc1cc2c(N3CCN(C(=O)Nc4ccc(OC(C)C)cc4)CC3)ncnc2cc1OCCCN1CCCCC1,92.5%
FC(F)(F)c1ccc(/C=C/c2nc(COc3ccc(CCCCn4ccnn4)cc3)co2)cc1,97.6%
N#C/C(=C(/N)SC1C=CC=CC1)c1cccc(C(O)c2ccncc2)c1 (centres unmarked),103%
C[C@@H](N)[C@H]1CC[C@H](C(=O)Nc2ccncc2)CC1,120%
CC(C)(C)c1nc2c3cc[nH]c(=O)c3c3cc(F)ccc3c2[nH]1,92.4%
COc1cc2c(Nc3ccc(Br)cc3F)ncnc2cc1OCC1CCN(C)CC1,103%
NC(=O)c1cccc(-c2cc(Nc3ccc(OC(F)(F)F)cc3)ncn2)c1,98.3%
O=C(O)/C=C/c1cc(Br)c(Br)c(Br)c1Br,101%
N#CC(c1ccnc(NCCc2cccnc2)n1)c1nc2ccccc2s1 (centres unmarked),118%
CC(C)N(CCC(=O)c1ccc2ccccc2c1)Cc1ccccc1,105%
CCCCc1c(-c2ccc(O)cc2)[nH]c2nccnc12,92.5%

# Sample 3 — effect on: enzyme activity; mode: inhibitor; concentration: 77 µM; reference: untreated
# Target: DNA polymerase theta, ATPase domain (POLQ, Homo sapiens, UniProt O75417)
# Sequence of UniProt O75417 (whole entry, unmodified, looked up): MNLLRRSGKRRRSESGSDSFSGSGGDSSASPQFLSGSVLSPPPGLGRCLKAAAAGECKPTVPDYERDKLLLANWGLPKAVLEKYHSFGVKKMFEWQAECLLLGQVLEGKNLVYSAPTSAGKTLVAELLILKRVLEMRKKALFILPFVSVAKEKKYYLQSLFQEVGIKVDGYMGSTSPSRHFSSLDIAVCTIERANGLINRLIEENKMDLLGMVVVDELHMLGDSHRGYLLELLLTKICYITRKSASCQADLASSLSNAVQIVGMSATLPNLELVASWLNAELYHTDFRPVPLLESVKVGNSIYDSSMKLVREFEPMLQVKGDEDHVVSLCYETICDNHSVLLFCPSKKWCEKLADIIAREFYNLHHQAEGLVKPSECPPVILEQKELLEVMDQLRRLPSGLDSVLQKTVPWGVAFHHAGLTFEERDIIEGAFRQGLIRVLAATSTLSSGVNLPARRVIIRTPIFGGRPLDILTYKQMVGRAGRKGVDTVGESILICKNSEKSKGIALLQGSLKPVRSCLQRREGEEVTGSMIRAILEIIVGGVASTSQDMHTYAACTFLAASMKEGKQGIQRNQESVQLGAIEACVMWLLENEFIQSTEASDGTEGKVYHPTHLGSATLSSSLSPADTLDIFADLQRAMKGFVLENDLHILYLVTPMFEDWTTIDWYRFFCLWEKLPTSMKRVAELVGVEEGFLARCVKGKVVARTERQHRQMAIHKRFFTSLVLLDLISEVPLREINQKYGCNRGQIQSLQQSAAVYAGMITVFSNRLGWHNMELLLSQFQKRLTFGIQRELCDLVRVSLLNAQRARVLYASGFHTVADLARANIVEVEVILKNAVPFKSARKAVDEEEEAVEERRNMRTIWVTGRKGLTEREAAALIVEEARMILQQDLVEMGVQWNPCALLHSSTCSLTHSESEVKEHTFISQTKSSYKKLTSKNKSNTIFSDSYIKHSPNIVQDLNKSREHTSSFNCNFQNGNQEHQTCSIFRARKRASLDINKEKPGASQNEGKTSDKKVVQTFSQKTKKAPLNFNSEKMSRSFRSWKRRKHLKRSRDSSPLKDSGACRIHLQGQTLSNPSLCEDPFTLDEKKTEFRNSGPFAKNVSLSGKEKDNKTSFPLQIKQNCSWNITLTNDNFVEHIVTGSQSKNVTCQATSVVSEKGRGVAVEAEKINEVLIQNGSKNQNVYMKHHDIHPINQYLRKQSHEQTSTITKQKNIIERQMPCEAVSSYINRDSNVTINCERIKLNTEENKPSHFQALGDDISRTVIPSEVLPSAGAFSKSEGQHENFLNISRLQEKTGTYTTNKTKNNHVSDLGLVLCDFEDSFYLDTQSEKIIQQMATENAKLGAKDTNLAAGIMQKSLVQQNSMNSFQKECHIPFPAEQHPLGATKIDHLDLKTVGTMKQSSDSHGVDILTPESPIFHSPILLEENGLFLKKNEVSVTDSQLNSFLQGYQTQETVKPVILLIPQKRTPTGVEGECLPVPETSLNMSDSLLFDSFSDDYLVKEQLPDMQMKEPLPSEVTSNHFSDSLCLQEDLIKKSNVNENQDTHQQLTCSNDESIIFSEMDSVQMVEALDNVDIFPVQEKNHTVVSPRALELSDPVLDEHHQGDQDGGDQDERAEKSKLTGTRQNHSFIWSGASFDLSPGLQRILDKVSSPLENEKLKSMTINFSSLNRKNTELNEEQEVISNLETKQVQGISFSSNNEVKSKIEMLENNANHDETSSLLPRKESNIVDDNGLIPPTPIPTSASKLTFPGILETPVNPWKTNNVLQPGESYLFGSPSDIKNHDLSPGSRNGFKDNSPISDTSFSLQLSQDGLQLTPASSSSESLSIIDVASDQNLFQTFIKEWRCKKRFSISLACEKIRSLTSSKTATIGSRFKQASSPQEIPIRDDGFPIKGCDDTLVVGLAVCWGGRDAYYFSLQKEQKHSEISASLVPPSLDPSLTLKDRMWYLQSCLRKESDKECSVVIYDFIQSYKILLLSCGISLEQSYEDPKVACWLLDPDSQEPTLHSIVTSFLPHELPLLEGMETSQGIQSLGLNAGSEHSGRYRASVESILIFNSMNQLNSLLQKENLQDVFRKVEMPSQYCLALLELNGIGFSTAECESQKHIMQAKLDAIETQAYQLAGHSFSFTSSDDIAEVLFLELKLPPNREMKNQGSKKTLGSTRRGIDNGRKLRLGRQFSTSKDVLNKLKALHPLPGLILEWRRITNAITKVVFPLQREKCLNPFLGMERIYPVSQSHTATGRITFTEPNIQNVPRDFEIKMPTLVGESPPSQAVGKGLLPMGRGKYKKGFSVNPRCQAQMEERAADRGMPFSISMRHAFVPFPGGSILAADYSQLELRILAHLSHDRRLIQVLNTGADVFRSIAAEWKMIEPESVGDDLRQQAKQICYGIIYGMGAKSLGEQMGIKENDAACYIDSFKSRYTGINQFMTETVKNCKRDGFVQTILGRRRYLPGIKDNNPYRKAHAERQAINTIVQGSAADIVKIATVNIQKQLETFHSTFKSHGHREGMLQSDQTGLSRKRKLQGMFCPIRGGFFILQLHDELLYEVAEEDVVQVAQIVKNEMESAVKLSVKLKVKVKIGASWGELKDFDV
Structure (SMILES),remaining activity [%]
CC(=O)NC1[C@@H](O)OC(CO)[C@@H](O)[C@H]1O[C@H](C)C(=O)O (stereo in doubt),98.4
OC1(c2ccc(Cl)c(C(F)(F)F)c2)CCN(CCCC(c2ccc(F)cc2)c2ccc(F)cc2)CC1,101
CC(O)(P(=O)(O)O)P(=O)(O)O,100
COC1=C(OC)C(=O)c2ccccc2C1=O,80
CC1=CC(=O)c2ccccc2C1=O,92.3
COc1ccc(Br)cc1S(=O)(=O)NC(=O)/C=C/c1ccccc1Cc1ccc2ccccc2c1,86.9
COc1cc(/C=C/C(=O)CC(=O)/C=C/c2ccc(O)c(OC)c2)ccc1O,95.1

# Sample 4 — technique: competition with immobilised ligand; concentration: 1 µM
# Compound: Cc1nc(C2CCN(C(=O)c3ccc(OC(F)(F)F)cc3N)CC2)c2ncc(N3CCN(C)CC3)cc2n1
target,test,remaining binding [%]
"DCLK2 (Homo sapiens, UniProt Q8N568)",cell-free assay,100
"Myosin-IIIb (MYO3B, Homo sapiens, UniProt Q8WXR4)",binding,71
"EPHA1 (Homo sapiens, UniProt P21709)",cell-free assay,100
"Aurora kinase B (AURKB, Homo sapiens, UniProt Q96GD4)",cell-free assay,88
"CSNK1G1 (Homo sapiens, UniProt Q9HCP0)",cell-free assay,100
"EPHB6 (Homo sapiens, UniProt O15197)",cell-free assay,100
"PRPF4B (Homo sapiens, UniProt Q13523)",cell-free assay,96
"PIP4K2B (Homo sapiens, UniProt P78356)",cell-free assay,78
"WNK4 (Homo sapiens, UniProt Q96J92)",cell-free assay,100
"STK35 (Homo sapiens, UniProt Q8TDR2)",cell-free assay,100
"DSTYK (Homo sapiens, UniProt Q6XUX3)",cell-free assay,95
"IKBKE (Homo sapiens, UniProt Q14164)",cell-free assay,97
"EGFR (Homo sapiens, UniProt P00533, L858R/T790M)",cell-free assay,88
"ERBB4 (Homo sapiens, UniProt Q15303)",cell-free assay,100
"MAP4K3 (Homo sapiens, UniProt Q8IVH8)",cell-free assay,100
"MERTK (Homo sapiens, UniProt Q12866)",cell-free assay,87
"CDK2 (Homo sapiens, UniProt P24941)",cell-free assay,87
"ANKK1 (Homo sapiens, UniProt Q8NFD2)",cell-free assay,81

# Some of these lines once more (sample 2):
SMILES,remaining activity
NC(=O)c1cccc(-c2cc(Nc3ccc(OC(F)(F)F)cc3)ncn2)c1,98.3%
NC(=O)c1ccc(-c2nc(-c3ccc4c(c3)OCCO4)c(-c3ccccn3)[nH]2)cc1,108%
O=C1c2ccccc2-c2nc3nnnn3nc21,88%
COc1cc2c(Nc3ccc(Br)cc3F)ncnc2cc1OCC1CCN(C)CC1,103%
O=C(O)/C=C/c1cc(Br)c(Br)c(Br)c1Br,101%
